Results gathered from unrelated publications.
Every numbered part comes from another study and shows a few of its results, in no order.

Sample 1
Target: Histone acetyltransferase KAT6A, both winged helices, GST fusion (KAT6A, Homo sapiens, UniProt Q92794, residues 1-181)
Method: protein binding microarray
Form: double-stranded DNA, one strand shown
Medium: in vitro
Tested at: not given
Notes: 8-mer, flanks averaged, mean of 2 arrays, mostly near background
Relative to: not given
Reading: higher = stronger binding
Residues (chain): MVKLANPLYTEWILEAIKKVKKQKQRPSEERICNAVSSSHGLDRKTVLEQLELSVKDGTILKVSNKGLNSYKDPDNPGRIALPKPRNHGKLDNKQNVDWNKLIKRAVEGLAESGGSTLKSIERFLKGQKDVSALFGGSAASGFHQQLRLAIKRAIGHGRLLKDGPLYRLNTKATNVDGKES
Sequence | E-score
GATCGACC | -0.016
GCATGTCA | 0.0587
ATTTGTGA | -0.0436
CATTACAC | -0.0282
ACTGCATA | -0.0876
ATAAAACA | 0.084
CAGGCCGA | -0.00528
GTGTGGTA | -0.131
ACTAGGAA | -0.173
CAGTAAAA | 0.0234
ATGCTTCC | -0.162
GATCACAA | -0.123
AAAAATCG | -0.101
CGACGTCG | 0.143
AACTCTGA | 0.0427
AATATTCC | 0.0436
GGTCAAAA | -0.12
GCGGTATA | 0.209
ATCCCCGC | 0.288
TCCGAAGA | 0.0196
ACGAGGGA | -0.129
GTCCATAA | -0.0847

Sample 2
Target: Prothrombin, mature alpha-thrombin (F2, Homo sapiens, UniProt P00734)
Method: aptamer microarray, sandwich
Form: DNA with 2'F-ANA
Medium: in vitro
Tested at: 200 nM
Notes: whole 15-mer aptamer, many near background
Together with: Cy3 exosite-II aptamer, 400 nM
Reading: higher = stronger binding
Sequence: GGTTGGTGTGGTTGG
Modification | mean fluorescence intensity
2'F-ANA at 1 3 4 10 11 12 13 14 | 65.1 a.u.
2'F-ANA at 3 6 9 11 | 946 a.u.
2'F-ANA at 2 3 4 6 9 10 11 12 14 | 142 a.u.
2'F-ANA at 1 2 3 5 8 10 | 74.3 a.u.
2'F-ANA at 5 7 10 12 | 50.5 a.u.
2'F-ANA at 1 2 3 7 10 11 12 13 14 | 55.9 a.u.
2'F-ANA at 3 4 5 6 8 12 14 15 | 55.4 a.u.
2'F-ANA at 1 2 3 5 9 12 13 | 83.9 a.u.
2'F-ANA at 1 2 3 4 5 6 7 10 14 | 49.6 a.u.
2'F-ANA at 2 3 4 5 6 8 10 | 51 a.u.
2'F-ANA at 1 2 3 4 8 15 | 262 a.u.
2'F-ANA at 1 3 5 6 7 8 10 11 15 | 49.8 a.u.
2'F-ANA at 2 4 9 10 12 13 15 | 99.1 a.u.
2'F-ANA at 1 2 3 5 8 9 10 12 13 14 | 48.8 a.u.
2'F-ANA at 1 2 3 5 6 7 9 10 11 12 13 14 15 | 51.5 a.u.
2'F-ANA at 1 3 6 7 9 10 11 15 | 69 a.u.
2'F-ANA at 2 3 4 6 8 11 13 15 | 413 a.u.
2'F-ANA at 1 2 6 8 9 15 | 187 a.u.
2'F-ANA at 1 2 6 8 9 10 11 12 15 | 61.5 a.u.
2'F-ANA at 1 3 4 6 7 10 11 12 13 | 76.7 a.u.
2'F-ANA at 2 5 6 8 9 12 13 14 | 44.3 a.u.
2'F-ANA at 2 8 11 12 14 15 | 184 a.u.
2'F-ANA at 4 6 8 10 11 | 90.8 a.u.
2'F-ANA at 2 3 5 6 8 9 15 | 96.6 a.u.
2'F-ANA at 2 3 5 7 8 9 10 14 | 50.5 a.u.

Sample 3
Target: Interferon regulatory factor 7, full length, phosphomimetic (IRF7, Homo sapiens, UniProt Q92985, residues 1-503, S471D/S472D/S475D/S476D/S477D/S483D/S484D/S487D)
Sequence of UniProt Q92985 (whole entry, unmodified, looked up): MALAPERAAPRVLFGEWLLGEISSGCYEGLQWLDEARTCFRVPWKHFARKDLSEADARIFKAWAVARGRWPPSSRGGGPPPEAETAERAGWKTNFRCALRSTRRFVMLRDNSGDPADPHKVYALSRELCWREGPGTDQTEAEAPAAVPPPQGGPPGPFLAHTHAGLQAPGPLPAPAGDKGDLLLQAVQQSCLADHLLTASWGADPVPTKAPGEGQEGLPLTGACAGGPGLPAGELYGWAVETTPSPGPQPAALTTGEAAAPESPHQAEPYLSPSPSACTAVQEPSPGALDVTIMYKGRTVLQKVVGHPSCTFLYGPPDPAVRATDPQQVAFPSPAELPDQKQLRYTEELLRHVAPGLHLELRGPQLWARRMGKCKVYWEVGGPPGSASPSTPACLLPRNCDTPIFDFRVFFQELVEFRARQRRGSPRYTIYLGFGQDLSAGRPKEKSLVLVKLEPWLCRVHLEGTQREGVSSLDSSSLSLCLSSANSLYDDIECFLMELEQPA
Method: protein-binding microarray
Form: double-stranded DNA, one strand shown
Medium: in vitro
Tested at: 2200 nM top
Notes: 60-bp whole probe
Together with: salmon DNA 0.4 mg/ml
Relative to: random background probes
Reading: higher = stronger binding
Constant ends, left off below: GCCTAGCAC … GTCTTGATTCGCTTGACGCTGCTG
Sequence | fitted relative affinity [z-score]
GACGAACTGAGTCTCGAGACGTGCTAG | 0.115
TGATGACTGGAGTCTGGACTAGTGCTA | -0.294
AACAGAGGAATGGATACAGAGTGCTAG | -0.607
CTCCCTCAGGGTTTCAGATGGTGCTAG | -0.134
AGAAACTTGTGTTTGTCCCTGTGCTAG | 1.06
TCATGTGCCCATCTCTGACTGTGCTAG | 0.76
GTCGGTTTCGACACTGGGGACGTGCTA | 3.83
TTAGGTTCCCTATTCCTTTAGTGCTAG | 1.83
TCATTTATGCACTCTTTAACTGTGCTA | 1.11
TTAGAACTGAGTTTTGATTAGTGCTAG | -0.0805
TTAGGTATCCTACTACTTTAGTGCTAG | 0.607
TGATGTCTGGGTCTTGGTTCGTGCTAG | 0.411
TTAGGTTTCGACCTTCGGTTAGTGCTA | 4.24
GAAGAACTGGGGTTTCGAGACGTGCTA | 0.894
TTAAATTTCGGGTATCGATTAGTGCTA | 3.07
GACGGTTTCCTATCCCTGACGTGCTAG | 2.6
GACGGTATCTGACTGGGGACGTGCTAG | -0.0723
GACGGTATTGACACTGGGGACGTGCTA | -0.127
GACGGTATCGATTTTCGGGACGTGCTA | 2.74
CAGAGCCTCAGTCCTCACACAGTGCTA | 0.0363

Sample 4
Target: RNA binding protein fox-1 homolog 2, RRM domain, GST-SBP tag (RBFOX2, Homo sapiens, UniProt O43251-10, residues 100-194)
Method: RNA Bind-n-Seq
Form: RNA
Medium: in vitro
Tested at: 365 nM
Notes: natural RNA segment, single round, ends assumed
Relative to: no-protein control
Reading: higher = stronger binding
Constant ends, left off below: GGGAGUUCUACAGUCCGACGAUC … UGGAAUUCUCGGGUGCCAA
Target sequence (chain): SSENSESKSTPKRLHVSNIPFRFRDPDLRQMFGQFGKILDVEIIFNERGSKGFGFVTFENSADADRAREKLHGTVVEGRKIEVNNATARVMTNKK
Sequence | RBNS enrichment (R)
GAUUUUGGAGAAAGCCCAAGGGUCCUUGAGGCCUAGCUGUGGCUGGAAGGGGCUUGGGCAGGGAGAAGCAUCAGUCUAUAGACGACGACGGUUCAGGGGGGGAGUAGGAA | 0.866
AGUCCUUCACCCCCAAGCACCACUGUACAGACUGGGGACCAGCCCCUUCCCUGCCUGUGUCUCUUCCCAAACCCCUGUAGGGGUGGUGAGAAGAGGAGGGGGGGAGGGGA | 0.316
ACAUUGUCAUCAUCUUUUUUUUUGAGACAGUUUCGCUCUGUUGCCCAGGCUGGAGUGCAGUGGUGUGAUCUUGGCUUUCUGCAACGUCUGCCUUCCAGGUUGAAGAGGUU | 0.436
AACUAAUGGUUUUAACCUCCUUAACCACCAGCAUCCCUCCUCUCCCCAAGGUGAAGUGGAGGGUGCUGUGGUGAGCUGGCCACUCCAGAGCUGCAGUGCCACUGGAGGAG | 0.314
CACCGCAGCAGCAUCUUCAAGAAUAAAGCAAUAUAGUUUACUACAUUUUUUUUUAAAAUUGAAGGUCAGCCAUGCUUUCUGUAUUAUAUUGCAUAUGAAAUUGUUUACAA | 0.399
AAAUAAGUCACCGUGUUGGAUUGAAAGCUUCAAAAUUUGAAAGAAUUCCAUCAAAUACUUGCUGUGUAAAUGUUUCUGGACUUUAUGUUAUUUAAUUUACUGACUGAAAU | 0.773
CCUUCCUGCUGCCCUAUCCUCUGCCUUAGAAGAAAUGGGAACAGCUUGUAGGGAAGGGACAAGCUGCAGAGGAACAGUGAUUUAAAGGCCCUUGGAGCUAGUCCCCUCAG | 0.269
ACUCAUGCUGUCUUGGACUCACUGACCCAGCUGCAGGGUUUUGUUACCCUGCCAGUCCCCUGCCUCACUCCACCAUGAAGGUCUCUGCUUUCCUGUGACUUGAUUGGGAU | 0.265
GCAGAAUGUGACACUCAAAGCAUCCAUGCAGUACGCAUGUAACCUUGCACAGGAGUGGGGCUCUGGUGACCGAAGGUUGUCCAGGACUCUUGCAGGAGAAGCAAUGGAGU | 0.921
CCUCACGCAGUUCGACUGGGAAAAUACAGAAGGGCUGCAGAGGCAAUAAGAAGGAAGAAAGGGAAGUCCACGGCAGGCAAAGGGUGUGGCUGGCUCUCUGAACAUCAGGA | 0.701
GUAACAUUUACCCACAACCUGGCUCGGCACUGGAUGAAAUUCUACAAGGUGAGUGGAGUGUAAAACUGGUCAGCCCUUGGAGAGACUUCUUGGUUGUGUCACCCCCAAAG | 0.339
GAGUGACCAGGUCAGUGGCCCUGCCCGUGAAGGCUGGCGAUUAACUGUGGCAGCAGACAUGUCCUGUCCUCAUCUUGGACAGGCCUCCCUUCCCCGUUGGCGUGCUUGGU | 1.02

Sample 5
Target: Sal-like protein 4, full length isoform A (SALL4, Homo sapiens, UniProt Q9UJQ4, residues 1-1053)
Sequence of UniProt Q9UJQ4 (whole entry, looked up): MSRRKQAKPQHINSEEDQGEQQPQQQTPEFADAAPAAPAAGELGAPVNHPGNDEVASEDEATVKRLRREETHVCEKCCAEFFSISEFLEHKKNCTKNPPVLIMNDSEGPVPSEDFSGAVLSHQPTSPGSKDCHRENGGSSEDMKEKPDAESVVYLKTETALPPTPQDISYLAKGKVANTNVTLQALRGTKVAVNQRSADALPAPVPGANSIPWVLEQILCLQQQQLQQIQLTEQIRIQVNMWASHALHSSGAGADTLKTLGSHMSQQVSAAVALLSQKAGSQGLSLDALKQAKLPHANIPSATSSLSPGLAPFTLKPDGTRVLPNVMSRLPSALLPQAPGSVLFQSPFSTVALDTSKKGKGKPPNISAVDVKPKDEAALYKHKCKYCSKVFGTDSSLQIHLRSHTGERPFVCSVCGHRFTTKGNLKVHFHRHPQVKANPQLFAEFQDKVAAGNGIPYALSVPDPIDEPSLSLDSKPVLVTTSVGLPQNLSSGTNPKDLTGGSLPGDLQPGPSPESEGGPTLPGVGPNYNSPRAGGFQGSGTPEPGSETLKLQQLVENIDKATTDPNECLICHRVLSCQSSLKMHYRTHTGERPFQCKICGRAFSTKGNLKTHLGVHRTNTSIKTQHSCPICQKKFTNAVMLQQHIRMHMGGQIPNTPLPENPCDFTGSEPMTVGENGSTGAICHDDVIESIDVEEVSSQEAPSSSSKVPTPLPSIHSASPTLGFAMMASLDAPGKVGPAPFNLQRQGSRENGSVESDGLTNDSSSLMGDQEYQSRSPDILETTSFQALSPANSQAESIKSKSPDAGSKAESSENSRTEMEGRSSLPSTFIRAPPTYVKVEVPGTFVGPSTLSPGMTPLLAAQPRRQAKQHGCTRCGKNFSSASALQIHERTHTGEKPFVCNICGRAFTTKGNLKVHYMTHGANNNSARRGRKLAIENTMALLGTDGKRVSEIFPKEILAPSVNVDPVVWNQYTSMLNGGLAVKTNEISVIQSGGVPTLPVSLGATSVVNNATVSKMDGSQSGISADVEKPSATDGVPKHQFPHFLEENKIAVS
Method: universal PBM
Form: double-stranded DNA, one strand shown
Medium: in vitro
Tested at: 600 nM
Notes: 8-mer, flanks averaged, mean of replicates
Reading: higher = stronger binding
Sequence | E-score
ATAGGGGG | -0.15
AGCGTACG | -0.0699
ATTGAGAG | 0.0672
AAATGCTC | 0.104
CTAGGGTC | -0.287
CATGCGTC | -0.164
CATTCACA | 0.211
AGGTAAAC | 0.156
CACTGCAC | -0.141
GAGTATCC | -0.207
GCTACAAA | 0.165
GGCGGGTA | -0.218
ACACGGCT | -0.0899
ATTCGGGA | -0.0416
AAGACCTA | 0.0101
AACGGGAA | 0.151
CTAGGCAA | -0.0276
ATTGATTC | 0.183

Some of these lines once more (sample 3):
Sequence | fitted relative affinity [z-score]
TTAGAACTGAGTTTTGATTAGTGCTAG | -0.0805
TTAGGTATCCTACTACTTTAGTGCTAG | 0.607
TGATGTCTGGGTCTTGGTTCGTGCTAG | 0.411
TTAGGTTTCGACCTTCGGTTAGTGCTA | 4.24
GAAGAACTGGGGTTTCGAGACGTGCTA | 0.894
TTAAATTTCGGGTATCGATTAGTGCTA | 3.07
